Results gathered from unrelated publications.
Compare with care: the assays were run in different laboratories. ± marks the error that the study gave.

Compound	test	test system	conditions	tissue uptake [%ID/g]
CC(C)C[C@@H](NC(=O)[C@@H](CCCNC(=N)N)NC(=O)[C@@H](Cc1c[nH]cn1)NC(=O)[C@@H](Cc1c[nH]c2ccccc12)NC(=O)[C@@H](Cc1c[nH]cn1)NC(=O)[C@@H](Cc1ccccc1)NC(=O)[C@H](NC(=O)[C@@H](Cc1ccc(O)cc1)NC(=O)CNC(=O)CNC(=O)CCOCCOCCOCCNC(=O)CN1CCN(CC(=O)O)CCN(CC(=O)O)CC1)[C@H](C)O)C(=O)N[C@H](CC(N)=O)C(=O)N1CCC[C@@H]1C(=O)O [gallium-68 labelled]	gamma counting	C57BL/6 mice, male, pancreas	intravenous, 1.85 MBq, 30 min	0.77 ± 0.24
CSCC[C@H](NC(=O)CNC(=O)[C@H](CCCCN)NC(=O)[C@H](CC(C)C)NC(=O)[C@@H]1CCCN1C(=O)[C@H](CO)NC(=O)[C@H](Cc1c[nH]cn1)NC(=O)[C@H](Cc1c[nH]c2ccccc12)NC(=O)[C@H](CCCNC(=N)N)NC(=O)[C@H](CC(C)C)NC(=O)[C@H](CCCNC(=N)N)NC(=O)[C@H](Cc1c[nH]c2ccccc12)NC(=O)[C@H](CS)NC(=O)CCCCCNC(=O)CN1CCN(CC(=O)O)CCN(CC(=O)O)CCN(CC(=O)O)CC1)C(=O)O [copper-64 labelled]	PET imaging	C57BL/6J mice bearing B16-F10 tumours, tumor	intravenous, 57.5 min	1.69 ± 0.13
CC[C@H](C)[C@H](NC(=O)[C@H](CCCNC(=N)N)NC(=O)[C@H](CCCCN)NC(=O)[C@H](Cc1ccc(O)cc1)NC(=O)[C@H](CC(=O)O)NC(=O)[C@H](C)NC(=O)CNC(=O)CCOCCOCCOCCNC(=O)CN1CCN(CC(=O)O)CCN(CC(=O)O)CCN(CC(=O)O)CC1)C(=O)N[C@H](C(=O)N[C@H](C(=O)N[C@@H](CCCCN)C(=O)N[C@H](C(=O)N[C@@H](CC(N)=O)C(N)=O)C(C)C)C(C)C)[C@@H](C)O [copper-64 labelled]	ex vivo gamma counting	C57BL/6J male mice, B16-F10 tumour, testis	intravenous, 1.85 MBq, 5 min	1.15 ± 0.398
C[C@H](O)[C@@H](NC(=O)[C@H]1CCCN1C(=O)[C@@H](CCCCN)NC(=O)[C@@H](CO)NC(=O)[C@@H](Cc1ccc(O)cc1)NC(=O)[C@@H](CC(N)=O)NC(=O)CCOCCOCCOCCNC(=O)CN1CCN(CC(=O)O)CCN(CC(=O)O)CCN(CC(=O)O)CC1)C(=O)N[C@H](CC(=O)O)C(=O)N[C@H](CCCNC(=N)N)C(=O)N[C@H](CCC(N)=O)C(=O)N[C@H](Cc1ccc(O)cc1)C(=O)N[C@H](Cc1c[nH]cn1)C(=O)N[C@H](Cc1ccccc1)C(N)=O [gallium-68 labelled]		BALB/c nude mice U-87 MG tumour, muscle	intravenous, 1.85 MBq, 0.08333 h, radiolabelled	2.21 ± 0.27
CC[C@H](C)[C@H](NC(=O)[C@H](CCCCN)NC(=O)CNC(=O)[C@H](CC(C)C)NC(=O)[C@H](Cc1ccccc1)NC(=O)[C@H](CCCCN)NC(=O)[C@H](CO)NC(=O)[C@H](Cc1ccccc1)NC(=O)[C@H](Cc1c[nH]c2ccccc12)NC(=O)[C@H](CCC(N)=O)NC(=O)[C@@H](NC(=O)[C@H](Cc1ccccc1)NC(=O)CCCCCNC(=O)CN1CCN(CC(=O)O)CCN(CC(=O)O)CCN(CC(=O)O)CC1)C(C)C)C(=O)N[C@@H](CCC(=O)O)C(=O)N1CCC[C@H]1C(=O)N[C@H](CC(=O)O)C(=O)N[C@H](C(=O)N[C@@H](CO)C(=O)N[C@@H](CCC(N)=O)C(=O)N[C@H](C(=O)N[C@@H](CCC(N)=O)C(=O)N[C@@H](CC(=O)O)C(=O)N1CCC[C@H]1C(=O)N[C@@H](CC(N)=O)C(=O)N[C@@H](CC(=O)O)C(=O)N[C@@H](CCC(N)=O)C(=O)N[C@@H](Cc1ccc(O)cc1)C(=O)N[C@@H](CCC(=O)O)C(=O)N1CCC[C@H]1C(=O)N[C@@H](Cc1ccccc1)C(=O)O)C(C)C)C(C)C [copper-64 labelled]		female mice, EMT6 tumour-bearing, tumor	2 h, uncleavable control tracer, vehicle-treated	1.55 ± 0.1
CC[C@H](C)[C@H](NC(=O)[C@H](CCCNC(=N)N)NC(=O)[C@H](CCCCN)NC(=O)[C@H](Cc1ccc(O)cc1)NC(=O)[C@H](CC(=O)O)NC(=O)[C@H](C)NC(=O)CNC(=O)CCOCCOCCOCCNC(=O)CN1CCN(CC(=O)O)CCN(CC(=O)O)CCN(CC(=O)O)CC1)C(=O)N[C@H](C(=O)N[C@@H](CC(C)C)C(=O)N[C@@H](CCCCN)C(=O)N[C@H](C(=O)N[C@@H](CC(N)=O)C(N)=O)C(C)C)[C@@H](C)O [copper-64 labelled]	ex vivo gamma counting	C57BL/6J male mice, B16-F10 tumour, brain	intravenous, 1.85 MBq, 5 min	0.212 ± 0.012
CCCC[C@H]1C(=O)N(C)[C@@H](CCCC)C(=O)N[C@@H](CCCNC(=O)CN2CCN(CC(=O)O)CCN(CC(=O)O)CCN(CC(=O)O)CC2)C(=O)N[C@H](C(=O)NCC(N)=O)CSCC(=O)N[C@@H](Cc2ccc(O)cc2)C(=O)N(C)[C@@H](C)C(=O)N[C@@H](CC(N)=O)C(=O)N2CCC[C@H]2C(=O)N[C@@H](Cc2c[nH]cn2)C(=O)N[C@@H](CC(C)C)C(=O)N(C)CC(=O)N[C@@H](Cc2c[nH]c3ccccc23)C(=O)N[C@@H](CO)C(=O)N[C@@H](Cc2c[nH]c3ccccc23)C(=O)N1C [gallium-68 labelled]		NOD/SCID mice, CHO-hPD-L1 xenograft, kidney	60 min, atezolizumab 10 mg/kg pretreatment	49.8 ± 14.9
CN1Cc2cc(Cl)ccc2-n2c(nnc2C2CCN(c3cccc([18F])n3)CC2)C1		C57BL/6 mouse male, small intestine	intravenous, 3.7 MBq, 30 min	34.1 ± 12.7
